Measured values of several laboratories.
Compare with care: the assays were run in different laboratories. ± gives the spread as reported.

Compound	tested on	test	test system	setting	scale	measurement	value
CC(=O)c1c(C)c2cnc(Nc3ccc(N4CCNCC4)cn3)nc2n(C2CCCC2)c1=O			G-Smo medulloblastoma mice (hGFAP-Cre x SmoM2), forebrain	intraperitoneal, 25 mg/kg single, dosed at postnatal day P10		Cmax	2840 ng/g
COc1ccc2nc(NC(=O)c3ccc(C(N)c4ccccc4)cc3)sc2c1 (stereo not shown)			CD-1 mice, female, plasma	10 mg/kg		Cmax	600 ng/mL
COC1CN([C@H]2CC[C@H]([C@@]3(C)Oc4c(Cl)cc(C(=O)NCc5c(SC)cc(C)[nH]c5=O)c(C)c4O3)CC2)C1			female CB17 SCID mice, KARPAS-422 xenograft, plasma	25 mg/kg, day 12		Cmax	742 ng/mL
CC[C@H](C)[C@H](NC(=O)[C@H](CCCNC(=N)N)NC(=O)[C@H](Cc1c[nH]cn1)NC(=O)[C@@H](N)[C@@H](C)O)C(=O)N[C@@H](CC(C)C)C(=O)N[C@@H](CCCNC(=N)N)C(=O)N[C@@H](CCCNC(=N)N)C(=O)N[C@@H](CC(C)C)C(=O)N[C@@H](Cc1ccccc1)C(=O)N[C@@H](CC(N)=O)C(=O)N[C@@H](CC(C)C)C(=O)N[C@@H](CS)C(N)=O		LC-MS/MS	C57BL/6J lean male mice, plasma	ip, 10 mg/kg		Cmax	0.015 to 0.02 µM
C=C(NC(=O)c1csc(-c2nc3c(cc2O)-c2nc(cs2)C(=O)NC(C(C)O)C(=O)NC(=C(C)OC)c2nc(cs2)C(=O)NC2c4nc(cs4)C(=O)NC(COC(=O)c4c5c6c(cccc6n4O)COC(=O)C(OC4CC(C)(O)C(N(C)C)C(C)O4)C2OC5)c2nc-3cs2)n1)C(N)=O (stereo not shown)			ICR mice, Streptococcus pneumoniae ATCC 49169 infected, immunocompromised, blood	intravenous, 32 mg/kg/day once daily		Cmax	3750 ng/mL
COC(=O)c1c(NC(=O)Cn2cnc([N+](=O)[O-])n2)sc2c1CCC(C)C2 (stereo not shown)	Trypanosoma cruzi	reporter mRNA translation, inhibitor, item: capped polyadenylated Renilla luciferase mRNA	cell-free extract	concentration not given	reference: control RNA	relative translation	110%
O=C1C2CC3CC1CC(C(=O)N1CCN(c4ccc([N+](=O)[O-])c5ncccc45)CC1)(C3)C2			ICR mice male, plasma	oral, 5 mg/kg		Cmax	29.7 ng/mL
CC(=O)N1c2ccc(-c3ccc(CNC(=O)c4cn5cc(-c6cnc(N)nc6)nc(N6CCOCC6)c5n4)cc3)cc2CC[C@@H]1C			female C57BL/6 mice, plasma	intraperitoneal, 45 mg/kg		Cmax	44 µM
CCCCCCCCN(Cc1ccc(CNC(=O)OCCOC23CC4CC(C2)CC(C(N)C(=O)N2C(C#N)CC5CC52)(C4)C3)cc1)CC(O)C(O)C(O)C(O)CO (stereo not shown)			C57BL/6J mice, female, plasma	intratracheal, 0.5 mg/kg		Cmax	0.13 µM
Nc1nonc1-c1nnc2c(n1)-c1ccccc1C2=O			ICR mice, plasma	intraperitoneal, 30 mg/kg		Cmax	8.3 ± 0.93 µM
O=C(CNc1ccc2ccccc2c1)N/N=C/c1ccc([N+](=O)[O-])o1	Trypanosoma cruzi	reporter mRNA translation, inhibitor, item: capped polyadenylated Renilla luciferase mRNA	cell-free extract	concentration not given	reference: control RNA	relative translation	104%
COc1ccc(/C=C/C(=O)N2CC(CCl)c3c2cc(N)c2ccccc32)cc1 (stereo not shown)			female NSG mice, plasma	intraperitoneal, 0.3 mg/kg		Cmax	108 ng/mL
CNCc1ccc(-c2cc(=O)c3ccc4[nH]c(C(F)(F)F)nc4c3o2)cc1			ICR mice, brain	oral, 5 mg/kg		Cmax	18.5 ng/g
